Published values pooled from the literature.
A part holds a random share of what one study measured. Changes are numbered by the printed parent chain.
Sequence of UniProt P68036 (whole entry, looked up): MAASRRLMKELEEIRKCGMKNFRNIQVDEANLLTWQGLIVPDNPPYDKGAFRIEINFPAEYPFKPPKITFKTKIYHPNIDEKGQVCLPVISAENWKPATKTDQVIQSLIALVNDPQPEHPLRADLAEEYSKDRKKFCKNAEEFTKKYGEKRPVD
Sequence of UniProt P63146 (whole entry, looked up): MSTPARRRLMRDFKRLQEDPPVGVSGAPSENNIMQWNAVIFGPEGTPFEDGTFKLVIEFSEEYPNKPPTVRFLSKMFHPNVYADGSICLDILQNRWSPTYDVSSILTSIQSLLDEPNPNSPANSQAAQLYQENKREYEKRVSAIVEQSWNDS
Sequence of UniProt P62837 (whole entry, looked up): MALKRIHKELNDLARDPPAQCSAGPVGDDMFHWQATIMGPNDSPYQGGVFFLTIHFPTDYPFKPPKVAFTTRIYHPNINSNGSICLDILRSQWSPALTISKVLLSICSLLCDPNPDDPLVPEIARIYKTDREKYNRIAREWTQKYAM
Sequence of UniProt Q9Y2X8 (whole entry, looked up): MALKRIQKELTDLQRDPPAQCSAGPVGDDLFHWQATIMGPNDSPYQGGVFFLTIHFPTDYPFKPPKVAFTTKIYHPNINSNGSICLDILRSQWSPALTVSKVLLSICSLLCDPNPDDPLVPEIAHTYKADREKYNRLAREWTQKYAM
Sequence of UniProt P62253 (whole entry, looked up): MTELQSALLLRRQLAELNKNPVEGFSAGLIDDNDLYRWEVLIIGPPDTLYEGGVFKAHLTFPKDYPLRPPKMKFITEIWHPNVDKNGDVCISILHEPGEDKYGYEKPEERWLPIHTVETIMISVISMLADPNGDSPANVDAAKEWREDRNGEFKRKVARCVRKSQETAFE

Study 1 — target: CCND2, cyclin fold, Cln2 fusion (human); technique: yeast growth competition, sequencing; medium: yeast; notes: weak parent motif; reference: not given; direction: higher = stronger binding
Starting sequence: SCAPER docking peptide (human); SNARRSLNFGGST
Substitution	normalised enrichment score
SNARRSLNFGKST [G11K]	0.394
SWARRSLNFGGST [N2W]	0.284
SNARRSLNFGCST [G11C]	0.644
MNARRSLNFGGST [S1M]	0.488
SNARRSLNFYGST [G10Y]	0.375
SNVRRSLNFGGST [A3V]	0.0339
SNARRSLNFGGSD [T13D]	0.773
SNARYSLNFGGST [R5Y]	0.15
SNARRSLNFGGMT [S12M]	-0.0726
SNARRSLNFGPST [G11P]	0.141
SNARASLNFGGST [R5A]	0.00767
SNIRRSLNFGGST [A3I]	0.319
SNARRSNNFGGST [L7N]	-0.155

Study 2 — technique: protein binding microarray; molecule type: double-stranded DNA, one strand shown; medium: in vitro; tested at: not given; reference: not given; direction: higher = stronger binding
Target: Histone acetyltransferase KAT6A, both winged helices, GST fusion (KAT6A, Homo sapiens, UniProt Q92794, residues 1-181)
Notes: 8-mer, flanks averaged, mean of 2 arrays, mostly near background
Residues (chain): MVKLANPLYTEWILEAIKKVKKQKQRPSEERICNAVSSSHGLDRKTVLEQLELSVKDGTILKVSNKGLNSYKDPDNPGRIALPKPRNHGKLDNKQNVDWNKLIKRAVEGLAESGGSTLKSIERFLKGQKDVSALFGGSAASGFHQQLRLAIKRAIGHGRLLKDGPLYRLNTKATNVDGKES
Oligonucleotide	E-score
TCGACACA	-0.00331
ACCATAAA	-0.0591
CTTCTATA	-0.156
TACCGCTA	0.255
ACGGTGAC	0.071
ATGAGCGA	0.21
GCTCTGAA	-0.0635
AAAACGGC	0.259
ACATTGAT	0.141
CTAGTCAC	-0.129
CCATCAGA	-0.0642
GGTTTCCA	-0.149
TTATTCAA	0.0767
CTGCCAAG	-0.17
CAGACGCC	0.0295
CCCTAGAC	-0.232
ACGTTCGC	0.137
CGCACAGA	0.122
TCATACGA	-0.0431

Study 3 — technique: universal PBM; molecule type: double-stranded DNA, one strand shown; medium: in vitro; tested at: not given; direction: higher = stronger binding
Target: Sal-like protein 4, full length isoform B (SALL4, Homo sapiens, UniProt Q9UJQ4-2, residues 1-616)
Notes: 8-mer, flanks averaged, mean of replicates
Oligonucleotide	E-score
ACAGGGGG	-0.221
AGTGGTCG	-0.171
TAGGAGCA	-0.021
GGTGTGTA	0.0285
TATCCCAA	0.0669
AGACTAGG	-0.0462
ATCCTCGG	-0.148
ACGCCGCA	-0.243
AACCTGCG	-0.175
GCCACCTA	-0.193
ACTAACGG	0.0531
CCGACTCA	-0.152
GCGGAGCC	-0.377
GGCGCGCC	-0.164
ACCTAAAA	0.049
ATCTTATG	0.171
ACCTCTTA	0.0718
CTTGCCTA	0.00532
TATTGACA	0.342
AGCCCCAC	-0.324
CTATTCCC	-0.0903
CTGCACCC	-0.274
GGGCCCAC	-0.407
GCGATAAC	0.0727
ACTACGAC	-0.102

Study 4 — technique: RNA Bind-n-Seq; molecule type: RNA; medium: in vitro; tested at: not given; reference: input RNA pool; direction: higher = stronger binding
Target: RING finger protein unkempt homolog, zinc fingers 1-6, GST-SBP tag (UNK, Homo sapiens, UniProt Q9C0B0, residues 30-357)
Notes: RNA with constant flanks, human-mouse chimeric sites, ends assumed
All sequences stand within: GGGAGUUCUACAGUCCGACGAUC … CAACAGAGGAUUGAGCAUCA
Residues (chain): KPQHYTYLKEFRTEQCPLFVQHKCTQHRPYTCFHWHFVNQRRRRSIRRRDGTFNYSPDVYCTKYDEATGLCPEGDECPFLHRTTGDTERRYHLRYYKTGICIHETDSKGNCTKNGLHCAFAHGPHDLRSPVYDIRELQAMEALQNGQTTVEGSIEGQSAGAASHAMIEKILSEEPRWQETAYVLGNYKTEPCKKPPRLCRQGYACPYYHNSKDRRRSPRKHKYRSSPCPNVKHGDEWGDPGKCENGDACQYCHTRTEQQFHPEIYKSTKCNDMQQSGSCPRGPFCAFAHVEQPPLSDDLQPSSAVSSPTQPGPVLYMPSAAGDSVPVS
Oligonucleotide	bound/input enrichment
GUGCCCUUCUCGCUGCUGCGGAGCCCGAGCUGGGAACCAUUCCGGGACUGGUACCCUGCACACAGCCGCCUCUUCGAUCAAGCUUUCGGGGUGCCCCGGCUGCCGGAUGAGUGGUCGCAG	0.0537 ratio
GGCCUGGGACCGUCCUGGGCUAGUACAAAUAGCGGCAUGGAGGCUCAGAGAGGAAAGUUUGUUAGUGGAGGCAGUGGUAGAGGCCGUCAUGUACGGUCCUUUACUCGUAAAAAUCCUUCU	0.244 ratio
GUUCGGCUUUGGGAUCAUGCCACAAUGACAGAAGUGAAAUCUCUGAAUUUUAAUAUGUCUGUUAGCAGUAUGGAAUAUAUUCCUGAAGGAGAGAUUUUGGUUAUUACUUAUGGACGAUCU	1.07 ratio
UUUCUACUGCAGCAAACGAUGCUAAGAAUUAAGGAUCCUAAGAAGUCCCUGGAUUUUUAUACGAGGGUUCUUGGACUGACGCUAAUCCAGAAGCUUGAUUUUCCCAUUAUGAAGUUCUCG	0.121 ratio
GCUGAAAAUGAAGAAGAGGCAGCUGAUGUCUGGUACAACCUGGGGCACAUAGCUGUGGGAAUCGGAGAUACAAACUUGGCCCACCAAUGCUUCAGGCUGGCUCUGGUCCACAACAACCAC	0.152 ratio
GUGCCCUUCUCGCUGCUCCUGCGGGGCAGCUGGGAACCAUUCCGGGACUGGUACCCUGCACACAGCCGCCUCUUCGAUCAAGCUUUCGGGCUGCCCCGGUUGCCCGAUGAGUGGUCGCAG	0.0448 ratio
GCUCCUCCCCGCUCUGCAGCCUGGGGACUUUUGGCAAGGACCAGAAUCCAGCUUUCUUUUAAAACUCUCAGUGUAACUGUAUCCCGUUUUUUUCUUUUUUUUUUAAAUAGUGUAUUUUUU	28.2 ratio
GUUCGACUCUGGGAUCAUGCCACAAUGACAGAAGUGAAAUCUCUGAAUUUUAAUAUGUCUGUUAGUAGCAUGGAGUAUAUUCCUGAAGGAGAGAUUUUGGUUAUUACUUAUGGACGAUCU	0.226 ratio

Study 5 — Molecule: B1 (TRIM3 RING domain); technique: yeast two-hybrid; medium: yeast; notes: mostly zero background; reference: not given; direction: higher = stronger interaction
B1: TRIM3 RING domain (UniProt O75382); chain VQPMDKQFLVCSICLDRYQCPKVLPCLHTFCERCLQNYIPAQSLTLSCPVCRQTSILPEQGV
target	lacZ reporter activity
UBE2B UBC core domain (UniProt P63146)	0
UBE2L3 UBC core domain (UniProt P68036)	0
UBE2D2 UBC core domain (UniProt P62837)	0
UBE2G1 UBC core domain (UniProt P62253)	0
UBE2D4 UBC core domain (UniProt Q9Y2X8)	0

Study 6 — technique: aptamer microarray, sandwich; molecule type: DNA with 2'F-ANA; medium: in vitro; tested at: 200 nM; with: Cy3 exosite-II aptamer, 400 nM; direction: higher = stronger binding; oligonucleotide: GGTTGGTGTGGTTGG
Target: Prothrombin, mature alpha-thrombin (F2, Homo sapiens, UniProt P00734)
Notes: whole 15-mer aptamer, many near background
Modification	mean fluorescence intensity [a.u.]
2'F-ANA at 2 4 6 10 13 15	66.7
2'F-ANA at 6 7	570
2'F-ANA at 2 3 4 9 10 12 15	319
2'F-ANA at 5 8 9 11 14	64.4
2'F-ANA at 2 4 5 7 10 12 14	56
2'F-ANA at 6 7 8 9 12 13 15	681
2'F-ANA at 1 2 3 6 7 8 9 11 13 14	118
2'F-ANA at 1 2 5 10 15	49
2'F-ANA at 2 3 4 5 11 12 13	106
2'F-ANA at 1 3 9 10 11 14	56.7
2'F-ANA at 3 5 6 7 8 9 10 14	47.7
2'F-ANA at 1 7 9 10 11 12 14 15	49.2
2'F-ANA at 1 2 5 10 14	49.1
2'F-ANA at 2 3 5 6 7 15	90.9
2'F-ANA at 1 3 6 7 8 10 12 15	120
2'F-ANA at 1 2 3 6 8 11 13 14 15	69.7
2'F-ANA at 1 3 4 5 6 7 8 9 12 13 14	85.9

Study 7 — technique: EMSA with sequencing; molecule type: double-stranded DNA, one strand shown; medium: in vitro; tested at: 10 and 20 nM; reference: negative control set to 0; direction: higher = stronger binding
Target: Hepatocyte nuclear factor 3-alpha (Foxa1, Mus musculus, UniProt P35582, residues 1-468, full length assumed)
Notes: whole designed probe, mean of two concentrations, ends assumed
All sequences stand within: GTGAGCGGTGCCCATTGATGGGGAAC … TTTCACTGGGATCGTGGGGAC
Target sequence (chain): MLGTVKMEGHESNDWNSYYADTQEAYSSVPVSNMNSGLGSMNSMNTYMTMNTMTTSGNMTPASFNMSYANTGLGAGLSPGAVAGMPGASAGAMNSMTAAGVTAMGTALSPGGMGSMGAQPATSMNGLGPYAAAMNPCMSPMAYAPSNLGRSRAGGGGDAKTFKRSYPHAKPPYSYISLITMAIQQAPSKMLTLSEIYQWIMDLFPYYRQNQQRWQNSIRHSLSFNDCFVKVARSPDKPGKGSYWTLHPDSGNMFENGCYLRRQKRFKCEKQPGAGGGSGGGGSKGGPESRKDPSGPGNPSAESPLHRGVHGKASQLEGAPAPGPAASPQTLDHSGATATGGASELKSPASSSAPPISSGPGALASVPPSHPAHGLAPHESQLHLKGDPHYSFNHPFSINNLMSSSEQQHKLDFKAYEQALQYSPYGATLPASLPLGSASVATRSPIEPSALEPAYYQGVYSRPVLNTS
Oligonucleotide	normalised bound fraction [ratio]
TGAGAATTGAACAGGGTGTAAAGAACCTGGAAAGCACCTGGAACAGTGCCAGCCCATAGTAAGTACGCAGCGAGAATGAGCTATTTGTATTGTGTAAACATGGTGGACAGTGTCTGTTATGTATCCAAAATGATTGTTGTTGGAGACTAAGAGAAAATGGATGCAGCTACAGTACTGAGGAGGCTGCAGTGTC	0.424
TAGACAAGTTTACGTAATCCTTCTGTTCCTCAGTTTCCTCATCTGTTACATGGGTGATATTAATAGGGTGTACCTTTTGATTGGGCTGGACCCTGTTTGCATTCTGCCCTGAAGGAGAGCGGGGCTGTGGGTCAAAGCTGCCCTAATTATAGGTGCAGCATCCGGAGCAAGGTGTTGCTTGGCTCTGCACTGC	0.0348
TCTAGAAAATGAGATGTGTTGAAGCGGGGAAGTGTTTGATTGTCAGGTCTAGAGGAAAAGAATAGGAAAAGTCTCCGAGCTTTGAATTTCCTGATGTTTACATAGTACAAAGGTTTATTAGAAGAGGCTGACGAATGTCTAAAAGGCTCAGTTTCTTCTATTGTATTTTCAAATAGCAGAGAAATAGCTTTAT	0.43
AGAAATTAGGATTTGAAGATGGAGGGGAAAGTGGGTGGGGAAAGAGTAGAGTAGATAGGGCTAAATAAATAAAACTACCATGTATATGAACAGTGTAAACAAGGACTTAAGAACTACTAAGTCCTTGTCTTGTATTAGTAAATACTAAATTATAAATAAAACACACTATAAGAATGTTGTTTTATATATCAAT	0.478
GGAAGCTCTTTGTACCCCTTTTGCAACTTTTCAGTAAATTTGCAGTTATTTCAAAATATAAAAAGTTAAACATTTGCTAGAAAAGTTTCTAAAAGATTACTCTCGGTTTCTGCTCAAGGGTGGGTGGCTTATGGTTCCCGCAGAGGCATTCCAAGTTACACGATCTGACAAGACATGGAGCGACCTGAGTTTG	-0.00023

Excerpt of the above (study 7):
Oligonucleotide	normalised bound fraction [ratio]
TGAGAATTGAACAGGGTGTAAAGAACCTGGAAAGCACCTGGAACAGTGCCAGCCCATAGTAAGTACGCAGCGAGAATGAGCTATTTGTATTGTGTAAACATGGTGGACAGTGTCTGTTATGTATCCAAAATGATTGTTGTTGGAGACTAAGAGAAAATGGATGCAGCTACAGTACTGAGGAGGCTGCAGTGTC	0.424
TCTAGAAAATGAGATGTGTTGAAGCGGGGAAGTGTTTGATTGTCAGGTCTAGAGGAAAAGAATAGGAAAAGTCTCCGAGCTTTGAATTTCCTGATGTTTACATAGTACAAAGGTTTATTAGAAGAGGCTGACGAATGTCTAAAAGGCTCAGTTTCTTCTATTGTATTTTCAAATAGCAGAGAAATAGCTTTAT	0.43
GGAAGCTCTTTGTACCCCTTTTGCAACTTTTCAGTAAATTTGCAGTTATTTCAAAATATAAAAAGTTAAACATTTGCTAGAAAAGTTTCTAAAAGATTACTCTCGGTTTCTGCTCAAGGGTGGGTGGCTTATGGTTCCCGCAGAGGCATTCCAAGTTACACGATCTGACAAGACATGGAGCGACCTGAGTTTG	-0.00023
AGAAATTAGGATTTGAAGATGGAGGGGAAAGTGGGTGGGGAAAGAGTAGAGTAGATAGGGCTAAATAAATAAAACTACCATGTATATGAACAGTGTAAACAAGGACTTAAGAACTACTAAGTCCTTGTCTTGTATTAGTAAATACTAAATTATAAATAAAACACACTATAAGAATGTTGTTTTATATATCAAT	0.478
TAGACAAGTTTACGTAATCCTTCTGTTCCTCAGTTTCCTCATCTGTTACATGGGTGATATTAATAGGGTGTACCTTTTGATTGGGCTGGACCCTGTTTGCATTCTGCCCTGAAGGAGAGCGGGGCTGTGGGTCAAAGCTGCCCTAATTATAGGTGCAGCATCCGGAGCAAGGTGTTGCTTGGCTCTGCACTGC	0.0348
